Published values collected from several papers.
Numbered parts are unrelated; each lists some results of a single study.
UniProt P35916, sequence (whole entry, looked up): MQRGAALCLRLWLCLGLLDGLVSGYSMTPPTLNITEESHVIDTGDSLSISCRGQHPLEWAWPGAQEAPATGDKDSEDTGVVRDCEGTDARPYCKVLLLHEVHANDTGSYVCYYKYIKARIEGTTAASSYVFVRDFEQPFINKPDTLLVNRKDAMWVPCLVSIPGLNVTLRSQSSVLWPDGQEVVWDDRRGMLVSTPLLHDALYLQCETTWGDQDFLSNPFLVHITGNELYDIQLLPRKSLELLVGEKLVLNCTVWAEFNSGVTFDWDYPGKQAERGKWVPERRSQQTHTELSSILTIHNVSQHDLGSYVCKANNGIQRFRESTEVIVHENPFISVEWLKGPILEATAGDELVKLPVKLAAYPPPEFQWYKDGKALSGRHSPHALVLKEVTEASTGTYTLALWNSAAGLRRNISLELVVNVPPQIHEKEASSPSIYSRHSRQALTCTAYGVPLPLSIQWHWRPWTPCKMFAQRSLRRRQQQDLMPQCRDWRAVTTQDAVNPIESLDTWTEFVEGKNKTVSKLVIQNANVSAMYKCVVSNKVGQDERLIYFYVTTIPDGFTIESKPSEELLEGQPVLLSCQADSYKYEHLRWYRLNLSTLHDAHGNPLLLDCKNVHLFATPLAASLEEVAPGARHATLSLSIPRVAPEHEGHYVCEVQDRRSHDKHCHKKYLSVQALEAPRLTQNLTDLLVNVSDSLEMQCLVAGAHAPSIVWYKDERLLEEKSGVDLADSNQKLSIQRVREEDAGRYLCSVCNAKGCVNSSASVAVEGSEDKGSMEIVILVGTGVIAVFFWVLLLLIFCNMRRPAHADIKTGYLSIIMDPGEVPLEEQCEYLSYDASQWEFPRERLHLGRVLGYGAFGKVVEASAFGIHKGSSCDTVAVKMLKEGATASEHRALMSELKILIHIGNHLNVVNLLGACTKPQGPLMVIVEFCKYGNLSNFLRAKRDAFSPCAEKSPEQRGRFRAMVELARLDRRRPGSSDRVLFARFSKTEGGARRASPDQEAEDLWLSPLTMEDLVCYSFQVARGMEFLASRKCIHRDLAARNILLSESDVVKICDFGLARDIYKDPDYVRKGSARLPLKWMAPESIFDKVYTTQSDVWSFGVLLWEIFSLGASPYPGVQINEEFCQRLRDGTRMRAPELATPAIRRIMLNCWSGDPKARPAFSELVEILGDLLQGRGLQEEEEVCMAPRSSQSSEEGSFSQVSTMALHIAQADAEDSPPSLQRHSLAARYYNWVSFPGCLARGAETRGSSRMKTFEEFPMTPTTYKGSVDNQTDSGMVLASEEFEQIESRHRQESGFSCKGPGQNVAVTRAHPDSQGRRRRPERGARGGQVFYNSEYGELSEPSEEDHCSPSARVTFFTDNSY
UniProt Q8TDR2, sequence (whole entry, looked up): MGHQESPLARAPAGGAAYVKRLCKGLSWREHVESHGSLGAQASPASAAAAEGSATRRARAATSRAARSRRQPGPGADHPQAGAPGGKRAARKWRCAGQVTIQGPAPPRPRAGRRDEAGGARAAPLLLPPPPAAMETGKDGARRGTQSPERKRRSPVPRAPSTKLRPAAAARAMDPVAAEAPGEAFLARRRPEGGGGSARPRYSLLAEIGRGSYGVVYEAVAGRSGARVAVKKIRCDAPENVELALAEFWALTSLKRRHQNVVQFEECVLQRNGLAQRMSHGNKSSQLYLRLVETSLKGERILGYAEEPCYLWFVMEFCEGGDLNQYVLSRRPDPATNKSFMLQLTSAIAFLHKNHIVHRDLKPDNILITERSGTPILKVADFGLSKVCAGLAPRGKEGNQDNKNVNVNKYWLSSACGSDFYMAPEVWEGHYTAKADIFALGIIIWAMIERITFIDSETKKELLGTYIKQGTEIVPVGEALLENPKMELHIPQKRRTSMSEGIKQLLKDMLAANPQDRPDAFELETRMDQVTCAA
UniProt Q13470, sequence (whole entry, looked up): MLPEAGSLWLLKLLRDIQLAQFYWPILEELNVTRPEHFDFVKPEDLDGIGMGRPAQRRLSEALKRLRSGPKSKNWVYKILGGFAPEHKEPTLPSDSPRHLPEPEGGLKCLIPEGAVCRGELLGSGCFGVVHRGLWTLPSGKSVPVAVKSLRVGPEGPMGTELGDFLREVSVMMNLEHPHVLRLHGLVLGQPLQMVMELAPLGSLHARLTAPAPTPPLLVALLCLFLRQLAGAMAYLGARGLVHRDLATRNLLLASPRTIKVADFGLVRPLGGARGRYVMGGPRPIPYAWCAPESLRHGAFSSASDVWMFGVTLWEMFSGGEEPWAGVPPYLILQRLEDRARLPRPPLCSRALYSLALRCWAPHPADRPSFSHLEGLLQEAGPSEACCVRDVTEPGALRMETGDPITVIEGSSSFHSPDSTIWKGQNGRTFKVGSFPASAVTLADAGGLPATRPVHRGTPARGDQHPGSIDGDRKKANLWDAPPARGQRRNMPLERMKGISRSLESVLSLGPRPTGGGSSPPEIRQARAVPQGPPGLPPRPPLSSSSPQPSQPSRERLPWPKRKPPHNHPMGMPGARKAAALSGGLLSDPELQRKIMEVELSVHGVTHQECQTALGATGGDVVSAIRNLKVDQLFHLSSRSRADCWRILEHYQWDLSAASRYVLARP
UniProt P42679, sequence (whole entry, looked up): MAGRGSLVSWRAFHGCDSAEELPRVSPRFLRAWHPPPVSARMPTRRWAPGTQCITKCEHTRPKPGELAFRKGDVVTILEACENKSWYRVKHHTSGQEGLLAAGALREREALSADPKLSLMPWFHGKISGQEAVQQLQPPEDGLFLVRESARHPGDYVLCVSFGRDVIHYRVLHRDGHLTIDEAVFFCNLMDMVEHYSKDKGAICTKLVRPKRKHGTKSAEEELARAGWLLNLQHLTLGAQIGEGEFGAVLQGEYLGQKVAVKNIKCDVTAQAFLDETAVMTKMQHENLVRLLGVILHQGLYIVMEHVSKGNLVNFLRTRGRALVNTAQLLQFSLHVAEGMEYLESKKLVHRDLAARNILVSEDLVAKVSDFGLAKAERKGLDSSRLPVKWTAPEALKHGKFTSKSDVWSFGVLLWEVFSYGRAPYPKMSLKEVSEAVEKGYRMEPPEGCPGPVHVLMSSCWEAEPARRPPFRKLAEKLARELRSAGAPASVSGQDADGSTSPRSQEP
UniProt Q8TDX7, sequence (whole entry, looked up): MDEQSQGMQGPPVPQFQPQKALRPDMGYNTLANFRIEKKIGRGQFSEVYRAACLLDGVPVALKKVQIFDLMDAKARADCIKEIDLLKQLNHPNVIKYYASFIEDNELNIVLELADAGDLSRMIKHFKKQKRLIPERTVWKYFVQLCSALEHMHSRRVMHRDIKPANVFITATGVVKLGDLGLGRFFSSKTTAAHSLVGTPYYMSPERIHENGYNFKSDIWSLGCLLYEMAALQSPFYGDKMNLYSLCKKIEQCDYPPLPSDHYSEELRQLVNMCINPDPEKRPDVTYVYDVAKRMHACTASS
UniProt P42336, sequence (whole entry, unmodified, looked up): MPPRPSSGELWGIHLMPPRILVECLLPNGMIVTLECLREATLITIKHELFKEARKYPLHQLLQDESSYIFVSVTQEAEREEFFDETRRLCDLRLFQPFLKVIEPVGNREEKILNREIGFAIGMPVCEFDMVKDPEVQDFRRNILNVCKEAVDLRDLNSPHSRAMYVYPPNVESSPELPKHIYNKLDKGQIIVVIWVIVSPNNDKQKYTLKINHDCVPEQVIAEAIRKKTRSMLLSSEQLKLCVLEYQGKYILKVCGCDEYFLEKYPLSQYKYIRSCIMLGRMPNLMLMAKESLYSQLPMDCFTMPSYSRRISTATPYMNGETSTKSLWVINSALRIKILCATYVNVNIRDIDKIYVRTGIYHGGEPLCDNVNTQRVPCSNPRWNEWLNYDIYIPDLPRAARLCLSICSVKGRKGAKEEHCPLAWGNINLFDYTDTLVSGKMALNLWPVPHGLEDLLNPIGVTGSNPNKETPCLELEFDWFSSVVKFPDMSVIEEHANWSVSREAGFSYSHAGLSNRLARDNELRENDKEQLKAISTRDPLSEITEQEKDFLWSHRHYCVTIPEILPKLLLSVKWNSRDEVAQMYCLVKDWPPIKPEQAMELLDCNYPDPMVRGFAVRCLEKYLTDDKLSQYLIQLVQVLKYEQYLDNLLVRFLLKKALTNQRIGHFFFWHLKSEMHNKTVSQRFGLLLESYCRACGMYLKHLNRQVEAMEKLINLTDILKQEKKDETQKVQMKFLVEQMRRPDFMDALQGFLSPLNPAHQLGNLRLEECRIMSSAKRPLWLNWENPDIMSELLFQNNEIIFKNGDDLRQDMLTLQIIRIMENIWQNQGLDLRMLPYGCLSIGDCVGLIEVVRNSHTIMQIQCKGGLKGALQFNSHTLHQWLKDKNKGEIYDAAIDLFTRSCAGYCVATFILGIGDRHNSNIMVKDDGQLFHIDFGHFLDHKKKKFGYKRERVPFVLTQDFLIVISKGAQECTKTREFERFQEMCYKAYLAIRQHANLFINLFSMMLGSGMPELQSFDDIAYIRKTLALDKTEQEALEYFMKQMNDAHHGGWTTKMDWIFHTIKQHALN

Study 1 — technique: phase 2a trial; host: idiopathic pulmonary fibrosis patients
Compound: CC(C)n1cnc(-c2ccc(F)cc2)c1-c1ncc(C(=O)Nc2ccc(N3CCN(C)CC3)cc2)[nH]1
| dose | setting | patients with constipation |
| --- | --- | --- |
| dose not given | adverse event grade 2, all dose arms pooled | 0% |
| dose not given | adverse event grade 5, all dose arms pooled | 0% |
| dose not given | adverse event grade 3, all dose arms pooled | 0% |
| dose not given | adverse event grade 4, all dose arms pooled | 0% |
| 60 mg once daily | adverse event grade 4 | 0% |
| 60 mg once daily | adverse event grade 5 | 0% |

Study 2 — tested at: 1 µM
SMILES: Cc1c(NC(=O)c2cc(C(N)=O)nc3cc(F)ccc23)c(C(F)(F)F)nn1Cc1ccc(C(C)(C)C)cc1
| target | observed | technique | remaining binding |
| --- | --- | --- | --- |
| Serine/threonine-protein kinase 35 (STK35, Homo sapiens, UniProt Q8TDR2) | cell-free assay | competition with immobilised ligand | 100% |
| Vascular endothelial growth factor receptor 3 (FLT4, Homo sapiens, UniProt P35916) | cell-free assay | competition with immobilised ligand | 91% |
| Phosphatidylinositol 4-phosphate 5-kinase type-1 alpha (PIP5K1A, Homo sapiens, UniProt Q99755) | cell-free assay | competition with immobilised ligand | 100% |
| Megakaryocyte-associated tyrosine-protein kinase (MATK, Homo sapiens, UniProt P42679) | cell-free assay | competition with immobilised ligand | 66% |
| Serine/threonine-protein kinase 24 (STK24, Homo sapiens, UniProt Q9Y6E0) | cell-free assay | competition with immobilised ligand | 100% |
| Cyclin-dependent kinase 4 (CDK4, Homo sapiens, UniProt P11802) | cell-free assay | competition with immobilised ligand | 100% |
| Serine/threonine-protein kinase pim-1 (PIM1, Homo sapiens, UniProt P11309) | cell-free assay | competition with immobilised ligand | 100% |
| Ephrin type-B receptor 6 (EPHB6, Homo sapiens, UniProt O15197) | cell-free assay | competition with immobilised ligand | 100% |
| Ephrin type-A receptor 2 (EPHA2, Homo sapiens, UniProt P29317) | cell-free assay | competition with immobilised ligand | 97% |
| Casein kinase II subunit alpha (CSNK2A1, Homo sapiens, UniProt P68400) | cell-free assay | competition with immobilised ligand | 100% |
| cAMP-dependent protein kinase catalytic subunit alpha (PRKACA, Homo sapiens, UniProt P17612) | cell-free assay | competition with immobilised ligand | 87% |
| Tyrosine-protein kinase ABL1, phosphorylated (ABL1, Homo sapiens, UniProt P00519, F317I) | binding | – | 100% |
| Calcium/calmodulin-dependent protein kinase type 1B (PNCK, Homo sapiens, UniProt Q6P2M8) | cell-free assay | competition with immobilised ligand | 100% |
| Angiopoietin-1 receptor (TEK, Homo sapiens, UniProt Q02763) | cell-free assay | competition with immobilised ligand | 94% |
| Death-associated protein kinase 1 (DAPK1, Homo sapiens, UniProt P53355) | cell-free assay | competition with immobilised ligand | 100% |
| Tyrosine-protein kinase JAK1, JH2 (JAK1, Homo sapiens, UniProt P23458) | cell-free assay | competition with immobilised ligand | 100% |
| Membrane-associated tyrosine- and threonine-specific cdc2-inhibitory kinase (PKMYT1, Homo sapiens, UniProt Q99640) | cell-free assay | competition with immobilised ligand | 100% |
| Receptor-interacting serine/threonine-protein kinase 2 (RIPK2, Homo sapiens, UniProt O43353) | cell-free assay | competition with immobilised ligand | 93% |
| Macrophage colony-stimulating factor 1 receptor (CSF1R, Homo sapiens, UniProt P07333) | cell-free assay | competition with immobilised ligand | 100% |
| Serine/threonine-protein kinase 17B (STK17B, Homo sapiens, UniProt O94768) | cell-free assay | competition with immobilised ligand | 100% |
| Death-associated protein kinase 2 (DAPK2, Homo sapiens, UniProt Q9UIK4) | cell-free assay | competition with immobilised ligand | 76% |
| Casein kinase I isoform gamma-1 (CSNK1G1, Homo sapiens, UniProt Q9HCP0) | cell-free assay | competition with immobilised ligand | 100% |
| Mitogen-activated protein kinase kinase kinase kinase 1 (MAP4K1, Homo sapiens, UniProt Q92918) | cell-free assay | competition with immobilised ligand | 100% |
| Mitogen-activated protein kinase 4 (MAPK4, Homo sapiens, UniProt P31152) | cell-free assay | competition with immobilised ligand | 100% |
| cAMP-dependent protein kinase catalytic subunit beta (PRKACB, Homo sapiens, UniProt P22694) | cell-free assay | competition with immobilised ligand | 100% |

Study 3 — Structure (SMILES): Cc1ccc(O)cc1Nc1ccnc2cc(-c3ccccn3)ccc12; observed: kinase activity; action: inhibitor; technique: ADP-Glo; time: 1 h
Target: Receptor-interacting serine/threonine-protein kinase 3 (RIPK3, Homo sapiens, UniProt Q9Y572)
UniProt Q9Y572, sequence (whole entry, looked up): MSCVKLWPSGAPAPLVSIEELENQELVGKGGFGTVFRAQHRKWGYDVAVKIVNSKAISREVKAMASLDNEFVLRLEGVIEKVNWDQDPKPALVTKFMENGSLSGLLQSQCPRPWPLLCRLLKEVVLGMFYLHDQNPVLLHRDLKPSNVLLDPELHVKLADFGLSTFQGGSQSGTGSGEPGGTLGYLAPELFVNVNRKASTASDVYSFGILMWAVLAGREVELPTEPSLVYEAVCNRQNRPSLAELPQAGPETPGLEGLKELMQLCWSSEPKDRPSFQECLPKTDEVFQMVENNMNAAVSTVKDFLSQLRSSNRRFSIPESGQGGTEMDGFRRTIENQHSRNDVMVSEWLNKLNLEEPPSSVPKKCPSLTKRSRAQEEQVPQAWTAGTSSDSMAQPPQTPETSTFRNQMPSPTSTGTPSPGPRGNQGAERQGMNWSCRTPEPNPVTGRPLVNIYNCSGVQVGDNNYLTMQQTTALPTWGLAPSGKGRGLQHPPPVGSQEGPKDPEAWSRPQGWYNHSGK
| tested at | inhibition |
| --- | --- |
| 25 nM | 81.6% |
| 1.563 nM | 20.2% |
| 6.25 nM | 58.8% |
| 12.5 nM | 74% |

Study 4 — observed: binding; tested at: 1 µM
Compound: COc1ccc2[nH]c3c4[nH]c5ccc(OC)cc5c4c4c(c3c2c1)C(=O)NC4=O
| target | technique | remaining binding [%] |
| --- | --- | --- |
| Serine/threonine-protein kinase Nek7 (NEK7, Homo sapiens, UniProt Q8TDX7) | – | 92 |
| Serine/threonine-protein kinase 32B (STK32B, Homo sapiens, UniProt Q9NY57) | – | 97 |
| Receptor-interacting serine/threonine-protein kinase 4 (RIPK4, Homo sapiens, UniProt P57078) | – | 83 |
| Non-receptor tyrosine-protein kinase TNK1 (TNK1, Homo sapiens, UniProt Q13470) | competition with immobilised ligand | 29 |
| Phosphatidylinositol 4,5-bisphosphate 3-kinase catalytic subunit alpha isoform (PIK3CA, Homo sapiens, UniProt P42336, E545K) | – | 84 |
| SRSF protein kinase 3 (SRPK3, Homo sapiens, UniProt Q9UPE1) | – | 100 |
| Activin receptor type-2B (ACVR2B, Homo sapiens, UniProt Q13705) | competition with immobilised ligand | 44 |
| Serine/threonine-protein kinase Nek10 (NEK10, Homo sapiens, UniProt Q6ZWH5) | – | 93 |

Study 5 — host: human; sample: microsomes or S9; tested at: 2 µM; time: 0.5 h
| Compound | remaining compound |
| --- | --- |
| CC(C)(C)OC(=O)NC1CCN(c2nnc(Cl)c3ccccc23)CC1 | 36.8% |
| CC1COc2c(N3CC4CC3CCN4C)c(F)cc3c(=O)c(C(=O)O)cn1c23 (stereo not drawn) | 91.3% |
| COc1ccc(-c2nnc(N)n2-c2ccc(C)cc2)c(OC)c1 | > 100% |
| CC(C)n1ncc2c1NC(=O)CC21C(=O)Nc2ccccc21 (stereo not drawn) | 18.1% |
| Cc1nc(-c2ccc(F)cc2)cc2c1sc1ccccc12 | 17.1% |
| CC1(COc2ccccc2)CC(n2ccnc2)C(c2ccc(-c3ccccc3)cc2)=NO1 (stereo not drawn) | 65.9% |
| CC(=O)Nc1ccc(N2N=C(c3ccc(O)cc3)C(C)CC2=O)cc1 (stereo not drawn) | 70% |
| COCCCNC(=O)N1Cc2c(sc3c2CCCC3)-n2cccc2C1c1cc(F)cc(F)c1 (stereo not drawn) | 2.25% |

Repeated from above (study 2):
| target | observed | technique | remaining binding |
| --- | --- | --- | --- |
| Vascular endothelial growth factor receptor 3 (FLT4, Homo sapiens, UniProt P35916) | cell-free assay | competition with immobilised ligand | 91% |
| Phosphatidylinositol 4-phosphate 5-kinase type-1 alpha (PIP5K1A, Homo sapiens, UniProt Q99755) | cell-free assay | competition with immobilised ligand | 100% |
| Megakaryocyte-associated tyrosine-protein kinase (MATK, Homo sapiens, UniProt P42679) | cell-free assay | competition with immobilised ligand | 66% |
| Serine/threonine-protein kinase 24 (STK24, Homo sapiens, UniProt Q9Y6E0) | cell-free assay | competition with immobilised ligand | 100% |
